Published values gathered from unrelated publications.
Compare with care: the assays were run in different laboratories. Numbers after ± are the reported error.

For `NCCOCC(=O)N1CCC[C@H](C(=O)NCc2nc(-c3ccc(C(F)(F)F)cc3)cs2)C1`, the oral bioavailability was 1.1% (Sprague-Dawley rat, male, plasma; oral, 3 mg/kg).
For `Cc1ccc(-c2ccccc2C(=O)NC[C@@]2(C3CC3)NC(=O)NC2=O)cc1`, the oral bioavailability was 54% (rat Wistar male; oral).
`[2H]c1cc(C)c(NC(=O)c2cnc(Nc3cc(N4CCCCC4)nc(C)n3)s2)c(Cl)c1` has an oral bioavailability of < 1% (Sprague-Dawley rats male, plasma; oral, 5 mg/kg, IV 1 mg/kg).
With `COc1cc(-c2cc(C(C)=O)n3ccccc23)c(OC)cc1Cn1ccnc1` the oral bioavailability was 50.3% (Sprague-Dawley rat, male, plasma; oral, 5 mg/kg).
`CC(C)(N)COCC(=O)N1CCC[C@H](C(=O)NCc2nc(-c3ccc(C(F)(F)F)cc3)cs2)C1` has an oral bioavailability of 1.3% (Sprague-Dawley rat, male, plasma; oral, 3 mg/kg).
`CCOC(=O)[C@@]12C[C@@H]1[C@@H](n1ccc3c(NC)nc(C#Cc4ccc(Cl)s4)nc31)[C@H](O)[C@@H]2O` has an oral bioavailability of 58.3% (Sprague-Dawley rat, male, plasma; oral, 1 mg/kg).
`CNC(=O)c1cccc(-c2ccc([C@@H](O)[C@H]3O[C@H](CO)[C@@H](O)[C@H](O)[C@@H]3O)c(C)c2)c1` has an oral bioavailability of 0.0195 (male Sprague-Dawley rat, plasma; oral, 10 mg/kg, unit not given; reference: IV 3 mg/kg).
For `Cc1nc(-c2cnc(NC(C)C)n(C)c2=O)ccc1Oc1ccnc(-c2cnn(C)c2)c1`, the oral bioavailability was 76.4% (Sprague-Dawley rat, male, plasma; oral, 10 mg/kg, crossover study).
The oral bioavailability of `O=C1c2ccncc2C(=O)c2c1[nH]c1ccccc21` is reported as 19.7% (Sprague-Dawley rat, female, plasma; oral, 5 mg/kg; reference: intravenous AUC(0-t)).
With `CCn1ccc2c([C@](O)(c3cnc(C(F)(F)F)c(Cl)c3)C3CC3)n(C)nc2c1=O` the oral bioavailability was ~35% (Sprague-Dawley rat, male; oral, 3 mg/kg; reference: IV 1 mg/kg).
For `N=C(N)NCCNC(=O)C1(Nc2ccccc2)CCN(Cc2ccccc2)CC1`, the oral bioavailability was 1.9 ± 0.4% (female Sprague-Dawley rats, plasma; 50 and 2.5 mg/kg).
The oral bioavailability of `COCC(=O)N1CCC[C@H](C(=O)NCc2nc(-c3ccccc3)cs2)C1` is reported as 29% (Sprague-Dawley rat, male, plasma; oral, 3 mg/kg).
`Cc1nc(Nc2ncc(C(=O)Nc3c(C)cccc3Cl)s2)cc(N2CC[C@@H](N)C2)n1` gave an oral bioavailability of < 1% (Sprague-Dawley rats male, plasma; oral, 5 mg/kg, IV 1 mg/kg).
With `CN1CC(Oc2cnc(C#N)cc2-c2ccn3nc(NC(=O)C4CC4)cc3c2)C1` the oral bioavailability was 60% (rat, Sprague-Dawley, male, plasma; oral, 5 mg/kg).
For `COc1ccc2c(Cc3ccccc3F)c3n(c(=O)c2c1OC)CCc1cc2c(cc1-3)OCO2`, the oral bioavailability was 15.2% (rat, plasma; oral, 5 mg/kg).

Repeated from above:
For `N=C(N)NCCNC(=O)C1(Nc2ccccc2)CCN(Cc2ccccc2)CC1`, the oral bioavailability was 1.9 ± 0.4% (female Sprague-Dawley rats, plasma; 50 and 2.5 mg/kg).
The oral bioavailability of `COCC(=O)N1CCC[C@H](C(=O)NCc2nc(-c3ccccc3)cs2)C1` is reported as 29% (Sprague-Dawley rat, male, plasma; oral, 3 mg/kg).
